Measured values from different studies.
In brackets after ≈: the same amount, converted by molar mass.
rep main protease: Replicase polyprotein 1ab, main protease (rep, Severe acute respiratory syndrome coronavirus 2, UniProt P0DTD1)

Structure (SMILES) | tested on | assay | test system | conditions | how to read | measurement | value
CN(C)CCNC(=O)c1ccc2c(c1)C1(CCN(CC3CC3)C1)CN2Cc1ccccc1 (stereo not drawn) | SARS-CoV-2 | cytopathic effect, cell-based CPE | USA_WA1/2020 |  |  | AC50 | 7.94 µM
Cc1ccc(-c2ccc3c(ccc4sc5c(c43)NC[C@@H](C)NC5=O)n2)cn1 | rep main protease | reporter gene (mKate2), inhibitor |  | 20 µM |  | inhibition | -0.305%
Nc1ncnc2c1ncn2[C@@H]1O[C@@H]2COP(=O)(O)O[C@H]3[C@@H](O)[C@H](n4cnc5c(=O)[nH]cnc54)O[C@@H]3COP(=O)(O)O[C@H]2[C@H]1O | Chikungunya virus | upregulated Reactome pathway, RNA sequencing, item: Chromatin modifying enzymes (R-HSA-3247509) | HFF-1 |  | reference: CHIKV-infected untreated | fold enrichment | 2.41
COc1ccc(C[C@@H]2c3cc(Oc4cc(C[C@@H]5c6cc(O)c(OC)cc6CCN5C)ccc4O)c(OC)cc3CCN2C)cc1 | Severe acute respiratory syndrome coronavirus 2 | cytopathic effect, inhibitor | Vero C1008 | 12.5 µM |  | inhibition | 0%
[O-][N+]1=C(c2ccc(Cl)cc2)C2=NCCN2c2ccccc21 | Clostridium perfringens | microbial growth |  |  |  | MIC50 | 0.5 µg/mL (≈ 1.68 µM)
CCC(CC)COC(=O)[C@H](C)N[P@](=O)(OC[C@H]1O[C@@](C#N)(c2ccc3c(N)ncnn23)[C@H](O)[C@@H]1O)Oc1ccccc1 | SARS-CoV | viral replication | Vero C1008 |  |  | EC90 | 2.7 µM
CNCCC=C1c2ccccc2C=Cc2ccccc21 | SARS-CoV-2 | viral replication, GFP plate reader screen | BetaCov/Belgium/GHB-03021/2020 | cell-based |  | EC50 | > 50.1 µM
Cc1nc2n(n1)CC(=O)N[C@@H](C(C)C)CN(C(=O)CCC1(C)CC1)CC(=O)N[C@@H](CC(C)C)c1nc(cs1)C(=O)N[C@H]2Cc1ccccc1 | Lassa mammarenavirus | viral replication | Huh-7 | 10 µM, 72 h |  | remaining activity | 82%
CCCCN(CCCNC(=O)c1cc(Nc2cccc(SC)c2)nc2ccccc12)Cc1ccccc1 | SARS-CoV-2 | cytopathic effect, cell-based CPE | USA_WA1/2020 | round 2, 5-point dilution |  | AC50 | 3.55 µM
CC[C@H](C)[C@H](NC(=O)[C@H](CC(C)C)NC(=O)[C@H](Cc1c[nH]c2ccccc12)NC(=O)[C@H](CCC(N)=O)NC(=O)[C@@H](NC(=O)[C@H](Cc1ccccc1)NC(=O)[C@H](C)NC(=O)[C@H](CCCCNC(=O)COCCOCCNC(=O)COCCOCCNC(=O)CC[C@H](NC(=O)CCCCCCCCCCCCCCCCCCC(=O)O)C(=O)O)NC(=O)[C@H](CCC(N)=O)NC(=O)[C@H](C)NC(=O)[C@@H](NC(=O)[C@H](CCCCN)NC(=O)[C@H](CC(=O)O)NC(=O)[C@H](CC(C)C)NC(=O)C(C)(C)NC(=O)[C@@H](NC(=O)[C@H](CO)NC(=O)[C@H](Cc1ccc(O)cc1)NC(=O)[C@H](CC(=O)O)NC(=O)[C@H](CO)NC(=O)[C@@H](NC(=O)[C@H](Cc1ccccc1)NC(=O)[C@@H](NC(=O)CNC(=O)[C@H](CCC(=O)O)NC(=O)C(C)(C)NC(=O)[C@@H](N)Cc1ccc(O)cc1)[C@@H](C)O)[C@@H](C)O)[C@@H](C)CC)[C@@H](C)CC)C(C)C)C(=O)N[C@@H](C)C(=O)NCC(=O)NCC(=O)N1CCC[C@H]1C(=O)N[C@@H](CO)C(=O)N[C@@H](CO)C(=O)NCC(=O)N[C@@H](C)C(=O)N1CCC[C@H]1C(=O)N1CCC[C@H]1C(=O)N1CCC[C@H]1C(=O)N[C@@H](CO)C(N)=O |  | item: anti-drug antibodies | healthy subjects | 0.5 mg, postbaseline, multiple ascending dose, titre increase ≥4-fold |  | subjects with treatment-boosted ADA | 0%
Cc1cnc(NCCN2CCCCCC2)nc1N(C)C | Lassa mammarenavirus | viral replication | Huh-7 | 10 µM, 72 h |  | remaining activity | 43%
O=C(Nc1ccc(N2CCCN(C(=O)c3cnccn3)CC2)nc1)c1c(F)cccc1Cl | Mycobacterium tuberculosis | bacterial growth | H37Ra-lux | 168 h |  | IC90 | > 64 µM
N[C@@H](CCCCNC(=O)OCc1ccc([N+](=O)[O-])cc1)C(=O)N1CCCC1 | rep main protease | viral replication, mKate2 reporter | SARS-CoV-2 | 20 µM |  | inhibition | -0.746%
CC(=O)N1CCN([C@H]2CCN(C(=O)N(C)[C@H](C)c3cc(C(F)(F)F)cc(C(F)(F)F)c3)[C@@H](c3ccc(F)cc3C)C2)CC1 | SARS-CoV-2 | viral replication, high-content imaging screen |  | cell-based |  | EC50 | > 25.1 µM
COc1cccc(CNC(=O)C2CCN(Cc3cc4ccccc4n3Cc3ccccc3)CC2)c1OC | SARS-CoV-2 | cytopathic effect | USA_WA1/2020 | round 2, 5-point |  | efficacy | 46.8%
Nc1ncnc2c([C@@H]3N[C@H](CO)[C@@H](O)[C@H]3O)c[nH]c12 | Sudan ebolavirus | viral replication | HeLa, Boniface | 0.8 µM |  | inhibition | 14.1%
CN(C(=O)CCC1CCCCC1)c1ncc(Cc2ccccc2)s1 | Histoplasma capsulatum | microbial growth |  |  |  | MIC | > 20 µM
Cc1cc(C)cc(-c2ccc(CN3CCCC3C(=O)NCc3cccc(F)c3)cc2)c1 (stereo not drawn) | SARS-CoV-2 | cytopathic effect | USA_WA1/2020 | round 1, 5-point |  | efficacy | 87.1%
O[C@](Cn1cncn1)(Cn1cnc(/C=C\c2ccc(OCC(F)(F)C(F)F)cc2)n1)c1ccc(F)cc1F | SARS-CoV-2 | viral replication, high-content imaging screen | BetaCov/Belgium/GHB-03021/2020 | cell-based |  | EC50 | > 100 µM
CCc1nc(C)c(CNc2nc3c(s2)c(C)nn3C)s1 | Lassa mammarenavirus | viral replication | Huh-7 | 10 µM, 72 h |  | remaining activity | 65%
Cn1cnc(Cn2c(=O)[nH]/c(=N\c3cc4cn(C)nc4cc3Cl)n(Cc3cc(F)c(F)cc3F)c2=O)n1 |  |  | human, all renal function groups | oral, 375 mg, treatment-related dry mouth, Moderate severity |  | patients with adverse event | 0%

Structure (SMILES) | tested on | assay | test system | conditions | how to read | measurement | value
CCN1C(=O)N(CCc2ccccc2)C2(CCN(Cc3cccn3-c3ccc(Cl)cn3)CC2)C1=O | Lassa mammarenavirus | viral replication | Huh-7 | 10 µM, 72 h |  | remaining activity | 44%
CCc1c(C(=O)C(N)=O)c2c(OCC(=O)O)cccc2n1Cc1ccccc1 | Daboia russelii |  | C2C12 | 100 µM, with: Daboia russelii venom KA | reference: venom alone | viability difference | -62%
O=C(NCCc1ccncc1)C1CN(C(=O)c2cccn2Cc2ccc(Cl)cc2)C1 | western equine encephalitis virus | viral replication, replicon |  |  |  | potency | decreased
Cc1nc(Nc2ccc(F)cc2)nc(N2CCc3ccccc3C2C)c1C (stereo not drawn) | SARS-CoV-2 | viral replication, GFP plate reader screen |  | cell-based |  | EC50 | > 100 µM
Cc1nc2n(n1)CC(=O)N[C@@H](C(C)C)CN(C(=O)c1cc(C)oc1C)CC(=O)N[C@@H](CC(C)C)c1nc(cs1)C(=O)N[C@H]2Cc1ccccc1 | Lassa mammarenavirus | viral replication | Huh-7 | 10 µM, 72 h |  | remaining activity | 90%
CCN(CC)CCNC(=O)c1cc(-c2ccc(Br)s2)nc2ccccc12 | SARS-CoV-2 | cytopathic effect | USA_WA1/2020 | round 1, 5-point |  | efficacy | 84.5%
CCCCCCCCNC(C)C(O)c1ccc(SC(C)C)cc1 (stereo not drawn) | SARS-CoV-2 | viral replication, GFP plate reader screen | BetaCov/Belgium/GHB-03021/2020 | cell-based |  | EC50 | > 100 µM
O=S(=O)(c1cccc(Oc2ccccc2)c1)N1CCn2cncc2C1 | Lassa mammarenavirus | viral replication | Huh-7 | 10 µM, 72 h |  | remaining activity | 38%
COc1ccc(Nc2cc(C(=O)NCCCN3CCN(c4ccc(OC)cc4)CC3)c3ccccc3n2)cc1 | SARS-CoV-2 | cytopathic effect | USA_WA1/2020 | round 2, 5-point |  | maximum response | 46.5%
CNc1cc(C)nc(N2C[C@@H]3NC(=O)CCCNC(=O)c4cccc(c4)-c4cccc(c4)CO[C@H]3C2)n1 | Lassa mammarenavirus | viral replication | Huh-7 | concentration not given |  | Emax | 98.3%
CNC(=O)[C@@H](NC(=O)[C@H](CC(C)C)[C@H](O)C(=O)NO)C(C)(C)C | Daboia russelii |  | C2C12 | 100 µM, with: Daboia russelii venom MP | reference: venom alone | viability difference | -46.6%
Cc1cccc(C)c1NC(=O)CN1CCN(CCCC(c2ccc(F)cc2)c2ccc(F)cc2)CC1 | SARS-CoV-2 | viral replication, high-content imaging screen |  | cell-based |  | EC50 | > 100 µM
O=C(N1CCC2(CC1)CC(CNS(=O)(=O)c1ccccc1)CCO2)C1(c2ccccc2)CCCC1 (stereo not drawn) | Venezuelan equine encephalitis virus | viral replication |  |  |  | EC50 | > 39.8 µM
O=C1CC(Nc2ncnc3c2CCC3)CN1CCCc1ccccc1 (stereo not drawn) | Lassa mammarenavirus | viral replication | Huh-7 | 10 µM, 72 h |  | remaining activity | 43%
CN1CCC(=C2c3ccccc3Oc3ccc(Cl)cc32)CC1 | SARS-CoV-2 | viral replication, high-content imaging screen |  | cell-based |  | EC50 | > 100 µM
Cn1c(=O)ccc2ccc(F)c(CCNC[C@H]3CN(c4cnc5c(n4)NC(=O)CO5)C(=O)O3)c21 | Ralstonia pickettii |  |  |  |  | MIC50 | 0.03 µg/mL (≈ 0.064 µM)
CCCCN(CCCC)CCCNC(=O)c1cc(-c2ccc(Cl)s2)nc2ccccc12 | SARS-CoV-2 | cytopathic effect, cell-based CPE | USA_WA1/2020 | round 2, 5-point dilution |  | AC50 | 6.31 µM
OC(CCCN1CCc2c(c3cc(F)ccc3n2-c2ccc(F)cc2)C1)c1ccc(F)cc1 (stereo not drawn) | SARS-CoV-2 | viral replication, GFP plate reader screen |  | cell-based |  | EC50 | 4.68 µM
O=C(/C=C/c1ccc(O)c(O)c1/C=C/c1ccc(O)c(O)c1)O[C@H](Cc1ccc(O)c(O)c1)C(=O)O | SARS-CoV-2 | cytopathic effect | Vero E6 | 50 µM, replicate run |  | mean inhibition | 16.7%
CCn1c2ccccc2c2cc(CN3CCN(Cc4cccc(Cl)c4)CC3)ccc21 | SARS-CoV-2 | cytopathic effect | USA_WA1/2020 | round 2, 5-point |  | maximum response | 97%
CNC(=NCCSCc1csc(N=C(N)N)n1)NC#N | Marburg virus | HIV/MARV pseudovirion entry | A549 | 48 h |  | IC50 | > 100 µM

Excerpt of the above:
Structure (SMILES) | tested on | assay | test system | conditions | how to read | measurement | value
CN(C(=O)CCC1CCCCC1)c1ncc(Cc2ccccc2)s1 | Histoplasma capsulatum | microbial growth |  |  |  | MIC | > 20 µM
Cc1cc(C)cc(-c2ccc(CN3CCCC3C(=O)NCc3cccc(F)c3)cc2)c1 (stereo not drawn) | SARS-CoV-2 | cytopathic effect | USA_WA1/2020 | round 1, 5-point |  | efficacy | 87.1%
O[C@](Cn1cncn1)(Cn1cnc(/C=C\c2ccc(OCC(F)(F)C(F)F)cc2)n1)c1ccc(F)cc1F | SARS-CoV-2 | viral replication, high-content imaging screen | BetaCov/Belgium/GHB-03021/2020 | cell-based |  | EC50 | > 100 µM
